{"data": "Measurements gathered from unrelated publications", "note": "A part holds a random share of what one study measured."}
{"data": "Study 1", "target": "Sal-like protein 4, full length isoform B (SALL4, Homo sapiens, UniProt Q9UJQ4-2, residues 1-616)", "technique": "universal PBM", "molecule type": "double-stranded DNA, one strand shown", "medium": "in vitro", "tested at": "not given", "setting": "8-mer, flanks averaged, mean of replicates", "reading": "higher = stronger binding"}
{"Strand": "CCTTAGCC", "E-score": -0.181}
{"Strand": "GCTTCGGA", "E-score": -0.0644}
{"Strand": "AACACTCC", "E-score": -0.00271}
{"Strand": "CTTACTTA", "E-score": 0.126}
{"Strand": "TAACAGAA", "E-score": 0.245}
{"Strand": "GCGACCCA", "E-score": -0.304}
{"Strand": "AGGTCCTG", "E-score": -0.147}
{"Strand": "ACTTACTG", "E-score": 0.068}
{"data": "Study 2", "target": "Centromere-binding protein 1, full length, His-tagged (CBF1, Saccharomyces cerevisiae, UniProt P17106, residues 1-351)", "technique": "competition protein-binding microarray", "molecule type": "double-stranded DNA, one strand shown", "medium": "in vitro", "tested at": "2 µM", "setting": "whole 60-bp probe, lowest competitor level", "together with": "Pho4 competitor, 0.05 µM", "reading": "higher = stronger binding", "shared flanks, not repeated": "… GTCTTGATTCGCTTGACGCTGCTG", "chain of UniProt P17106 (whole entry, looked up)": "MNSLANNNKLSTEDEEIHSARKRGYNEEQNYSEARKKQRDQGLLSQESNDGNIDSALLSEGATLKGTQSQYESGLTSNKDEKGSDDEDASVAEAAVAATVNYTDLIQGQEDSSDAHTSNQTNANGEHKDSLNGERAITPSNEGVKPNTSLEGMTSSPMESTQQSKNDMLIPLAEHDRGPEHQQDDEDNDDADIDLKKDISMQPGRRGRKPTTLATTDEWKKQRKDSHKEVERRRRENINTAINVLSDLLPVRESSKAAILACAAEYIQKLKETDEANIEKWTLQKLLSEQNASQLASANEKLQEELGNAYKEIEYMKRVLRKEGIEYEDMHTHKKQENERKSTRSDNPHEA"}
{"Strand": "GGAGAAGGATTAGATCTCGTGCCGAACGACAGCAAG", "fluorescence intensity": "189 a.u."}
{"Strand": "AAAGCGGTAATTTGTCTAGTGGGTGCAGATATCTAT", "fluorescence intensity": "81.3 a.u."}
{"Strand": "AAAAAAAATTTTCGCCTCGTGGCCGGAAACACGGCC", "fluorescence intensity": "117 a.u."}
{"Strand": "CGGGGTTAAGTTTGCTTCGTGGGTGGCTTGCAGCAG", "fluorescence intensity": "62.6 a.u."}
{"Strand": "GACTTTTCGAGCCTTTATGACCGGATAAAAAGCCTA", "fluorescence intensity": "58 a.u."}
{"Strand": "CGGGGTTAAGTTTGGTATGTGGGTGGCTTGCAGCAG", "fluorescence intensity": "77.3 a.u."}
{"Strand": "TTTCCGCACAAGCACCATGTGTGAAAACATGCAGAT", "fluorescence intensity": "94.6 a.u."}
{"data": "Study 3", "target": "Histone acetyltransferase KAT6A, winged helix 1, GST fusion (KAT6A, Homo sapiens, UniProt Q92794, residues 1-85)", "technique": "protein binding microarray", "molecule type": "double-stranded DNA, one strand shown", "medium": "in vitro", "tested at": "not given", "setting": "8-mer, flanks averaged, mean of 2 arrays, mostly near background", "baseline": "not given", "reading": "higher = stronger binding", "Residues (chain)": "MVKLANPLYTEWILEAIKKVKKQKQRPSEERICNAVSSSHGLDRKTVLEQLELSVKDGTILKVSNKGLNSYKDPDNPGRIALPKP"}
{"Strand": "CCCATGGC", "E-score": -0.0458}
{"Strand": "CCGATGCA", "E-score": 0.0509}
{"Strand": "CCGCTCAA", "E-score": 0.142}
{"Strand": "ACAAATGA", "E-score": -0.27}
{"Strand": "ATCAGCTG", "E-score": -0.103}
{"Strand": "CTTCTGTA", "E-score": -0.151}
{"Strand": "AAGATCCG", "E-score": 0.0626}
{"Strand": "ACTAATAT", "E-score": -0.0877}
{"data": "Further values, each from its own experiment"}
{"Molecule": "PhoQ, residues 284 288 289 292 302 303 SSTMSV", "target": "PhoP, residues 12 14 15 18 19 MHTVL (Escherichia coli, UniProt P23836)", "assay": "Sort-seq, measured: YFP reporter", "system": "E. coli", "conditions": "PhoQ-PhoP variant library, together with: 10 µM Mg2+", "how to read": "baseline: high Mg2+ state, higher = stronger signaling", "measurement": "fold induction", "result": 21.4}
{"note": "Repeated from above (study 1):"}
{"Strand": "TAACAGAA", "E-score": 0.245}
